# Published values collected from several papers.
# Compare with care: the assays were run in different laboratories.
# Sequence of UniProt P42785 (whole entry, looked up): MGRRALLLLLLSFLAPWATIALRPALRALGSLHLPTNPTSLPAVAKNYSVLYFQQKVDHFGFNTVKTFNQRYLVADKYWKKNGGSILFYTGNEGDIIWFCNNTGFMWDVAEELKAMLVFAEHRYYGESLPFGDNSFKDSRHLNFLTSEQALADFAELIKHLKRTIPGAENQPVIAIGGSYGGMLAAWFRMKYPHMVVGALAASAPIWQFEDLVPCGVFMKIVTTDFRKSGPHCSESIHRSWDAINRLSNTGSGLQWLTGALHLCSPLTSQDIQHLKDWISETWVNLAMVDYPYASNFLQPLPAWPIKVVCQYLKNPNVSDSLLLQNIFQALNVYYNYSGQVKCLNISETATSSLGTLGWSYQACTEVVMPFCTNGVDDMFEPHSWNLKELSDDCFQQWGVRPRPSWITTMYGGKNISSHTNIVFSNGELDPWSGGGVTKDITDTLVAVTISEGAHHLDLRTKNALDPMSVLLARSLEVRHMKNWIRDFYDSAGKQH
# Sequence of UniProt Q92945 (whole entry, looked up): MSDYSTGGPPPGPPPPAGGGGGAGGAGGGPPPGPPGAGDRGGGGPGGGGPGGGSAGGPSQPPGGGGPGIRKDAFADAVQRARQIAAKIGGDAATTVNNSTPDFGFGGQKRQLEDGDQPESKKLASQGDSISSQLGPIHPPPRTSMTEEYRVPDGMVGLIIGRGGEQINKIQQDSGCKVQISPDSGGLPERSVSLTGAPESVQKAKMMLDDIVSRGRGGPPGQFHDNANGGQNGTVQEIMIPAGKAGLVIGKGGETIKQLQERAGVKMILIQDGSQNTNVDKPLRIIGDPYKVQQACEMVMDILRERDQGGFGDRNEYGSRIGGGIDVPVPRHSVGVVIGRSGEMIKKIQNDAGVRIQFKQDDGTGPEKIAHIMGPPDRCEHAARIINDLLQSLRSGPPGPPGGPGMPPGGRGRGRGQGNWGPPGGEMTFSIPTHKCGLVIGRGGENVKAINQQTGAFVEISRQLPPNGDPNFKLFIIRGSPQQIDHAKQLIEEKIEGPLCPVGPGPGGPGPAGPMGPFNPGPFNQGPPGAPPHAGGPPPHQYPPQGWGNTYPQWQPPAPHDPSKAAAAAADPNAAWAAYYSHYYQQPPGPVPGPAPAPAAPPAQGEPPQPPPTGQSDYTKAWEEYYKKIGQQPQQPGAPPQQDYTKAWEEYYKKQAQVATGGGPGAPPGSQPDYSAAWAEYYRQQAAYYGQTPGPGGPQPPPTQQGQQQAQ
# Sequence of UniProt Q13873 (whole entry, looked up): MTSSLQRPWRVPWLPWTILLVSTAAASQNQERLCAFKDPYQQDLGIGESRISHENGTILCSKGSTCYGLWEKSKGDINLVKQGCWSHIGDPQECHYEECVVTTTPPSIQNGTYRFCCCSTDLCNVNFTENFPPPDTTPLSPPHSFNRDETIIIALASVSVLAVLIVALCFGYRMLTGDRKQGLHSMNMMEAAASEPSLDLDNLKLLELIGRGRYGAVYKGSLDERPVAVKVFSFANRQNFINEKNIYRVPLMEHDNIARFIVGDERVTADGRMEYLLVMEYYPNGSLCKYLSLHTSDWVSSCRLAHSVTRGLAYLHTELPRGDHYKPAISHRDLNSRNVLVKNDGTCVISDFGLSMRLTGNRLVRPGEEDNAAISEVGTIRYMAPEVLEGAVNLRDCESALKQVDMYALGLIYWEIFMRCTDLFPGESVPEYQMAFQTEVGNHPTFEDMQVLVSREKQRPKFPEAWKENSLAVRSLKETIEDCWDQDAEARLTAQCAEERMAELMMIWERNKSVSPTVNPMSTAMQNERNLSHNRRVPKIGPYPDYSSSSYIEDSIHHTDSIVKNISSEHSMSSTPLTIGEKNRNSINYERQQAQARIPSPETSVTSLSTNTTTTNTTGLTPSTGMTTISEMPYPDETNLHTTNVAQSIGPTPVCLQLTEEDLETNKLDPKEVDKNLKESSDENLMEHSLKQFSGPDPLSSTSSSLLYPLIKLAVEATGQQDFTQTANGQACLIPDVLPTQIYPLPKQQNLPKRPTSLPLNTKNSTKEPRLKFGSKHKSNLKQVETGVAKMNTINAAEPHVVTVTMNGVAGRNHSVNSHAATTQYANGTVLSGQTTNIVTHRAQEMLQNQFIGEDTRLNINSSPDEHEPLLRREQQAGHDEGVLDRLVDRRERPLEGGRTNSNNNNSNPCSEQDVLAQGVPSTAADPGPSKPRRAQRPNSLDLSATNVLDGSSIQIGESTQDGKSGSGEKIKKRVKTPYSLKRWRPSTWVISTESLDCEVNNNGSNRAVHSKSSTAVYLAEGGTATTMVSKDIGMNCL
# Sequence of UniProt P06239 (whole entry, looked up): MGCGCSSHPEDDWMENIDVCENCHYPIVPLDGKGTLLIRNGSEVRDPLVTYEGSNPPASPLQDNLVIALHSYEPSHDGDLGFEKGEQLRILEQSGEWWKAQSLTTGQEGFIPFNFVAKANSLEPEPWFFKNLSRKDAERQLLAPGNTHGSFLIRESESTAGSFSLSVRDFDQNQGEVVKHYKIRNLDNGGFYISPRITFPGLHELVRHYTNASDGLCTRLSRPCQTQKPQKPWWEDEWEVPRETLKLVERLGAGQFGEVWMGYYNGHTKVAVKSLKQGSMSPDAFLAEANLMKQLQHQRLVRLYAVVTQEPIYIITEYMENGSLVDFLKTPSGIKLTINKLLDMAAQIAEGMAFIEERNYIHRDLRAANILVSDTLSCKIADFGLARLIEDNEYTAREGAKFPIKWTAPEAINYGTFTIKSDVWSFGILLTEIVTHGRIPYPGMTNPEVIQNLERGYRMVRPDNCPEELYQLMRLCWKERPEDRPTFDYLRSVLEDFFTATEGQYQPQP
# Sequence of UniProt O43603 (whole entry, looked up): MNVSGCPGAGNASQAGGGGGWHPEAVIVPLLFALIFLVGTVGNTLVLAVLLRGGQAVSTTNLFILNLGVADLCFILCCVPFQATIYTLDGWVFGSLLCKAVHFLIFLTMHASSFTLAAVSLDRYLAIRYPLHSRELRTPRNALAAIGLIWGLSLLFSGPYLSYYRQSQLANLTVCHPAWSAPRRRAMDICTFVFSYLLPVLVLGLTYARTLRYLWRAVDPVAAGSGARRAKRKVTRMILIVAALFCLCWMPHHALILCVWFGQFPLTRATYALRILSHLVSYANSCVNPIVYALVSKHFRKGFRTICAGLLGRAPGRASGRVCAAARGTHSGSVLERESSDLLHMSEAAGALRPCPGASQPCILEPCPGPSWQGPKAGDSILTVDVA
# Sequence of UniProt P08908 (whole entry, looked up): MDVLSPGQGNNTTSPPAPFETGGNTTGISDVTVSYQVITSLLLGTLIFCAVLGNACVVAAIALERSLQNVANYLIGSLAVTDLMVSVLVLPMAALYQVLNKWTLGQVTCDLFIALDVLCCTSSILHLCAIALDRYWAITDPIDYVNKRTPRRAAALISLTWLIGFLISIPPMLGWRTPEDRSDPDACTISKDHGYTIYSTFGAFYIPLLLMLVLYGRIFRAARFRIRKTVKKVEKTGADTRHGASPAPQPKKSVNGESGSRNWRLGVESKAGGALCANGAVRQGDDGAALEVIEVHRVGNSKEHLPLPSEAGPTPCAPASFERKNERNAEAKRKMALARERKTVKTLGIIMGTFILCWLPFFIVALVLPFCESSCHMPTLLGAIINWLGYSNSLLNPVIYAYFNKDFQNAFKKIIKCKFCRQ
# Sequence of UniProt Q969F8 (whole entry, looked up): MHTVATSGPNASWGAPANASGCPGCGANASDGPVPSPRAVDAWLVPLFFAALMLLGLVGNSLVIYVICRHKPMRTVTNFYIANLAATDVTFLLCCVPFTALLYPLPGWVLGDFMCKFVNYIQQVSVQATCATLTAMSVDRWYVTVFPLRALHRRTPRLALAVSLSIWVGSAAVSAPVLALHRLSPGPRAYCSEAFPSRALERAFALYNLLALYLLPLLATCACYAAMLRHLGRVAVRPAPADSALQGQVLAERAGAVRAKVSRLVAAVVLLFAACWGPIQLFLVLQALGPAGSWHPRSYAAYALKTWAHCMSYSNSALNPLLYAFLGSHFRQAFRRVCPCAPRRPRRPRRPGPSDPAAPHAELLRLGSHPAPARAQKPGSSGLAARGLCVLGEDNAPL
SMILES,target or system,assay,system,conditions,how to read,quantity,value
O=S(=O)([O-])C(F)(F)C(F)(F)C(F)(F)C(F)(F)C(F)(F)C(F)(F)C(F)(F)C(F)(F)F.[K+],,"RT-qPCR, item: Cyp4a10","pair-fed mice, liver",dose not given,,mRNA level,increased
CN[C@@]1(c2ccccc2Cl)CCCCC1=O,"HTR1A (Homo sapiens, UniProt P08908)","radioligand binding, agonist, radioligand displacement",,30 µM,,inhibition,18%
C[C@H]1CN(c2n[nH]c3nc(N[C@H]4CC[C@H](NS(=O)(=O)CCC(F)(F)F)CC4)ncc23)CCO1,"KHSRP (Homo sapiens, UniProt Q92945)","inhibitor, Kinobeads competition profiling",,20 µM,baseline: vehicle,relative abundance,1.22
COc1ccc2c(-c3nc(-c4c(C)[nH]c5ccc(OC)cc45)cs3)c[nH]c2c1,differentiated W12E,CUT&RUN-qPCR,,concentration not given,baseline: untreated,BARD1 binding at HPV ori,decreased
COc1ccc(N2C(=O)N(c3c(C)cccc3Cl)Cc3cnc(Nc4ccc(C5CCN(C)CC5)cc4OC)nc32)nc1,"LCK (Homo sapiens, UniProt P06239)",kinase activity,,0.5 µM,,inhibition,97%
Oc1ccc2c3c1O[C@H]1[C@@H](O)CC[C@@]4(O)[C@@H](C2)N(CC2CCC2)CC[C@]314,"KiSS-1 receptor (KISS1R, Homo sapiens, UniProt Q969F8)","receptor activation, TANGO luminescence",,"concentration not given, unconfirmed screen",baseline: vehicle control,log2 fold change,-0.55
[2H]c1c([2H])c([C@]2([2H])CCCN2C(=O)C(C)(C)Oc2ccc3cn[nH]c3c2)c([2H])c([2H])c1C([2H])([2H])[2H],"BMPR2 (Homo sapiens, UniProt Q13873)",KINOMEscan,,1 µM,baseline: DMSO control,remaining binding,94%
O=C(c1ccc(Cl)cc1)N1CCN2C(=O)N(OC(=O)N3CCOc4ccccc43)C(=O)C2C1 (stereo not drawn),"PRCP (Homo sapiens, UniProt P42785)",MS-based ABPP,SW-620 conditioned medium,"10 µM, 1 h, 37 °C",baseline: treated over control,mean protein ratio,1.16
CN1CCN(c2cc(-c3ccncc3)c(-c3ccc4ccccc4c3)nn2)CC1,"GALR2 (Homo sapiens, UniProt O43603)","agonist, FLIPR",,12.5 µM,,activation,-1.8%

# Excerpt of the above:
SMILES,target or system,assay,system,conditions,how to read,quantity,value
COc1ccc2c(-c3nc(-c4c(C)[nH]c5ccc(OC)cc45)cs3)c[nH]c2c1,differentiated W12E,CUT&RUN-qPCR,,concentration not given,baseline: untreated,BARD1 binding at HPV ori,decreased
